Measured values of several laboratories.
A part holds a random share of what one study measured.
UniProt P42685, sequence (whole entry, looked up): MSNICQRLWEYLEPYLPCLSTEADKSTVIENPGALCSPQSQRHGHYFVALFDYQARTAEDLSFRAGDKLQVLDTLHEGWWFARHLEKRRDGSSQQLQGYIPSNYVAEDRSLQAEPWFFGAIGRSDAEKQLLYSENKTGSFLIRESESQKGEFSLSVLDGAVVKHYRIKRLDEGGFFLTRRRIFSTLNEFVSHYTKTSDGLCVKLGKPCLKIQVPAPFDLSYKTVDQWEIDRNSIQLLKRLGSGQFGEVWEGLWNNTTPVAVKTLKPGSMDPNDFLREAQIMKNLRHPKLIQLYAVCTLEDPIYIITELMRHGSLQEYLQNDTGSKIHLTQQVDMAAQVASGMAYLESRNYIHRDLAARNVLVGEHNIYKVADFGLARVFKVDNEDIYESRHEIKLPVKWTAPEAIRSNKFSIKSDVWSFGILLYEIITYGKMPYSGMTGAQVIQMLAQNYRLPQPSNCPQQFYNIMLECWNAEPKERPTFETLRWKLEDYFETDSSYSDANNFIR
UniProt O14965, sequence (whole entry, looked up): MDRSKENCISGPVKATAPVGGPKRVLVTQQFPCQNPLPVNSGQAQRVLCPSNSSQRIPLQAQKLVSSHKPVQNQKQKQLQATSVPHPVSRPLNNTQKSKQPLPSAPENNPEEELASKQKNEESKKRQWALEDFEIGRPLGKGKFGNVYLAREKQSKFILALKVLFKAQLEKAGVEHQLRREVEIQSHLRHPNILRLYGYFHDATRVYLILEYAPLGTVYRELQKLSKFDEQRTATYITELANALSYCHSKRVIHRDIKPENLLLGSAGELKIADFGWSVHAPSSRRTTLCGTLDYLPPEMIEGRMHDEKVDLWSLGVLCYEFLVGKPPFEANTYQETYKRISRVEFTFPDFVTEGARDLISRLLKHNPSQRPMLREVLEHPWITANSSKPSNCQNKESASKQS
UniProt P10721, sequence (whole entry, unmodified, looked up): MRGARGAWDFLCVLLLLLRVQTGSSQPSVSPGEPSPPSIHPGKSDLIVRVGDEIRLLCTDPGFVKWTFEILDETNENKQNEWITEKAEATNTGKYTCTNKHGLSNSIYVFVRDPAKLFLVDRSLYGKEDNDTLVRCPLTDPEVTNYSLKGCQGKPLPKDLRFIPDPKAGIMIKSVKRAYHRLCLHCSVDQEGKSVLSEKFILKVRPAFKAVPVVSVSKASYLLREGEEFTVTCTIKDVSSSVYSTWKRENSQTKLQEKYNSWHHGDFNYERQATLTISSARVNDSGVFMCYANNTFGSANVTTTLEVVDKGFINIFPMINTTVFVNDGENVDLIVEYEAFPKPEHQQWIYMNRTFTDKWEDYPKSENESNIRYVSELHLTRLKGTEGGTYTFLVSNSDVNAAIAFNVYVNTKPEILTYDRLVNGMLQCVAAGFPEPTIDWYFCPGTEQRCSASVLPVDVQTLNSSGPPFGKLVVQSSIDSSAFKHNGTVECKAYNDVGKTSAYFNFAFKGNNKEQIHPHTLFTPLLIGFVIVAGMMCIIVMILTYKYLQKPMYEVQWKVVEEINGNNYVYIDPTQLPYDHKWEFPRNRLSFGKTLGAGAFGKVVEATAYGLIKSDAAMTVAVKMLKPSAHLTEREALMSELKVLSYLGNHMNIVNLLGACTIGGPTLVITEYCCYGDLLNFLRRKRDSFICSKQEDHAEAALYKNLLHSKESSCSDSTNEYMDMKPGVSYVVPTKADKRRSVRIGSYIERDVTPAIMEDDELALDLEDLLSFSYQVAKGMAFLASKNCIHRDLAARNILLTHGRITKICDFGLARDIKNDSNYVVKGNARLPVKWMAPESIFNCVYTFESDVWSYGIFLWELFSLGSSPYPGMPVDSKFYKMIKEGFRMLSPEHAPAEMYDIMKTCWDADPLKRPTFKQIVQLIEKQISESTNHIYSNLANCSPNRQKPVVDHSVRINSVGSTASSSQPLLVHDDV
UniProt P51679, sequence (whole entry, looked up): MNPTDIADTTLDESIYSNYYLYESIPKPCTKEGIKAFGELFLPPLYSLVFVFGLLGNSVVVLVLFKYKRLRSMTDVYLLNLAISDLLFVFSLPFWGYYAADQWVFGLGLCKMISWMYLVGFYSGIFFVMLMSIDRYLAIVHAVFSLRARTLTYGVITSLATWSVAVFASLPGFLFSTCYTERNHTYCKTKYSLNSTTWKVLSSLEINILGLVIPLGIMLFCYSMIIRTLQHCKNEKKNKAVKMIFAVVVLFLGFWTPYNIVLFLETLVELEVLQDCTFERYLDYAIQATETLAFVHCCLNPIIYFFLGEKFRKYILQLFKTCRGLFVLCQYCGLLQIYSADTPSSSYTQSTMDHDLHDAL
UniProt Q8TDR2, sequence (whole entry, looked up): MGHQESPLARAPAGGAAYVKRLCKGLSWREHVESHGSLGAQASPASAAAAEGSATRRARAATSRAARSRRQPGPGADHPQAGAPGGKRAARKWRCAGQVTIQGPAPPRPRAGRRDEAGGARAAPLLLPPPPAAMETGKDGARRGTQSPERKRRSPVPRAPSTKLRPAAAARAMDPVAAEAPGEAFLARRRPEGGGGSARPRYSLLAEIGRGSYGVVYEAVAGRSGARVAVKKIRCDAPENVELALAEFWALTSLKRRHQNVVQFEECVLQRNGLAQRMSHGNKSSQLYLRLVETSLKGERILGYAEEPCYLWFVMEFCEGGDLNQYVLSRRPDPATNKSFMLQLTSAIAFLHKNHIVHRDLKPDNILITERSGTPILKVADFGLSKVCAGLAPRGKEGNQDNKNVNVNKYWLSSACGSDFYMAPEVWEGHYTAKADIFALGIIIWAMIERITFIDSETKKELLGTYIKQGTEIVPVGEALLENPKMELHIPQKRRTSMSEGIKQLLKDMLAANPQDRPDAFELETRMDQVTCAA
UniProt P29275, sequence (whole entry, looked up): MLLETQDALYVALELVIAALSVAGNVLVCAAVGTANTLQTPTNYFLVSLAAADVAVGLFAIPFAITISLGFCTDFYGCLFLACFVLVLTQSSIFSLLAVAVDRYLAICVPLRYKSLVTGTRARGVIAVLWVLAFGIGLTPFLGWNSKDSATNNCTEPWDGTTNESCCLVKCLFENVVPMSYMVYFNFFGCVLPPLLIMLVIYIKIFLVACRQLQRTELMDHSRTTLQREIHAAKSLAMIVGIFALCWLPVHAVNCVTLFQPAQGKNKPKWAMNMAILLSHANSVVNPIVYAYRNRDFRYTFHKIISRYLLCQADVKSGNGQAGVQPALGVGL
UniProt P07949, sequence (whole entry, unmodified, looked up): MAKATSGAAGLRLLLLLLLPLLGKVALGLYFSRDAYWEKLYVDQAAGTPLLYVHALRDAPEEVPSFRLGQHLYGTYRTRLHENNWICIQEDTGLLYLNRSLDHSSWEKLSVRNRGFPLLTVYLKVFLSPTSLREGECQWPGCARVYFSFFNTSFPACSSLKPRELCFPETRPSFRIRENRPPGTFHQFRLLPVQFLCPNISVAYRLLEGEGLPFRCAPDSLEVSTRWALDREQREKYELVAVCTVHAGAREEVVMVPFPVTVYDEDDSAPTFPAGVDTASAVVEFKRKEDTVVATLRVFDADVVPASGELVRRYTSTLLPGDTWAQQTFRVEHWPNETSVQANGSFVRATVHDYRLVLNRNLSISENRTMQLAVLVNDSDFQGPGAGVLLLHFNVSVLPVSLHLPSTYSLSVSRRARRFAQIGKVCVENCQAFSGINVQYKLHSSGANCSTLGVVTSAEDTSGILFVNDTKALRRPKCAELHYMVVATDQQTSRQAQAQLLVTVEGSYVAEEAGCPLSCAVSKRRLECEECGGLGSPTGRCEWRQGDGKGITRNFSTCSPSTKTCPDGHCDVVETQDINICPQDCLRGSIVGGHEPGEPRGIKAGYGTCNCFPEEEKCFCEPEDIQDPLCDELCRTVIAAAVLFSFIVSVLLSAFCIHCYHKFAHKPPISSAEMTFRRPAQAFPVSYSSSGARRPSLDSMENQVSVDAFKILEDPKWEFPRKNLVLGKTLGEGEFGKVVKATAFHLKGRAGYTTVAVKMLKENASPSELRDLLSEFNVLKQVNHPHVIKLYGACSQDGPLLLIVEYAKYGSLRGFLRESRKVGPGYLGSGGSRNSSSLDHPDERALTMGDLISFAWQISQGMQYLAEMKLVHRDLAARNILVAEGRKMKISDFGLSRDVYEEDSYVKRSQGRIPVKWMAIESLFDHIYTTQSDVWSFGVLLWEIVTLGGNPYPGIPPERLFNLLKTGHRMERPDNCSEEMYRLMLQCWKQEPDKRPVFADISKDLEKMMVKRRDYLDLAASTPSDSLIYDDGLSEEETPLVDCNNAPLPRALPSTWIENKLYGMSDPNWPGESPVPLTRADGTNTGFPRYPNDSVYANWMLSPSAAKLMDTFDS
UniProt Q92847, sequence (whole entry, looked up): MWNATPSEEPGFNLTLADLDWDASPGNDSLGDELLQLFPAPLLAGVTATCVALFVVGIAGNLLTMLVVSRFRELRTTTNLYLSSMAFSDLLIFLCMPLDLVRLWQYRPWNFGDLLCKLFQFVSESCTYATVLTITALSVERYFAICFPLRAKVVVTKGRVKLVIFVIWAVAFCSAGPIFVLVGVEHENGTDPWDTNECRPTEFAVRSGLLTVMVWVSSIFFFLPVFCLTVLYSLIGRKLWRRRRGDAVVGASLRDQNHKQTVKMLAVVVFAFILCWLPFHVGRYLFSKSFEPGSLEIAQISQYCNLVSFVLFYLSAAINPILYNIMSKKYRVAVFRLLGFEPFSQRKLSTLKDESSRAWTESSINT
UniProt P45983, sequence (whole entry, looked up): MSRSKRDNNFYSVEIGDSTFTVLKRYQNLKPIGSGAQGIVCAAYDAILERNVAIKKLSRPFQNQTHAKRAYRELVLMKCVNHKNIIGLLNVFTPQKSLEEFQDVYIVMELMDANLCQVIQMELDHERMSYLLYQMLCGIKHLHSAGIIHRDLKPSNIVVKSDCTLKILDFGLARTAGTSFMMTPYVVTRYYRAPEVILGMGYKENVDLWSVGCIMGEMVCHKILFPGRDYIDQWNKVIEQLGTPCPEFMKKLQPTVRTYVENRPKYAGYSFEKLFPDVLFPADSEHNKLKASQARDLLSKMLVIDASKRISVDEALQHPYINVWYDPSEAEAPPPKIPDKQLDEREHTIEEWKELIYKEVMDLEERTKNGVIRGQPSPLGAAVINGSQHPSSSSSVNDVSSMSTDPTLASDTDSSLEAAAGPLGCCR

Block 1
Cell line: A-375
Tested at: 100 µM
Time: 18 h
Compound | viability [%]
C[C@H]1O[C@H](O[C@H]2[C@H](O)[C@@H](O)[C@@H](O[C@H]3[C@H](O)[C@@H](O)C(O)O[C@@H]3CO)O[C@@H]2CO)[C@H](O)[C@@H](O)[C@@H]1N[C@H]1C=C(CO)[C@@H](O)[C@H](O)[C@H]1O (stereo partly drawn) | 98.5
Cc1nccn1CC1CCc2c(c3ccccc3n2C)C1=O (stereo not drawn) | 71.5
S=C1SCN(Cc2ccccc2)CN1Cc1ccccc1 | 108
CC1(C)S[C@@H]2[C@H](NC(=O)COc3ccccc3)C(=O)N2[C@H]1C(=O)O | 103
COc1ccc(O)cc1 | 88.6
CCN(CC)CCOCCOC(=O)C1(c2ccccc2)CCCC1 | 88.8
Cc1cc(C#N)cc(C)c1Oc1nc(Nc2ccc(C#N)cc2)nc(N)c1Br | 34.7
O=c1[nH]c(=O)n(C2CCCO2)cc1F (stereo not drawn) | 87.1
N#Cc1ccc2[nH]cc(CCCCN3CCN(c4ccc5oc(C(N)=O)cc5c4)CC3)c2c1 | 11.6
Cc1cc2c(cc1S(N)(=O)=O)S(=O)(=O)CCC2 | 75.9

Block 2
Structure (SMILES): Cc1ccc(NC2=CC(=O)c3sc(C)nc3C2=O)cc1
Observed: enzyme activity
Action: inhibitor
Tested at: 0.5 µM
Relative to: control
target | remaining activity [%]
Tyrosine-protein kinase Blk (BLK, Homo sapiens, UniProt P51451) | 95.4
Homeodomain-interacting protein kinase 4 (HIPK4, Homo sapiens, UniProt Q8NE63) | 93.7
Ribosomal protein S6 kinase alpha-6 (RPS6KA6, Homo sapiens, UniProt Q9UK32) | 73.4
Ephrin type-B receptor 4 (EPHB4, Homo sapiens, UniProt P54760) | 89.7
Tyrosine-protein kinase Srms (SRMS, Homo sapiens, UniProt Q9H3Y6) | 82.4
Testis-specific serine/threonine-protein kinase 2 (TSSK2, Homo sapiens, UniProt Q96PF2) | 98.3
Serine/threonine-protein kinase WNK3 (WNK3, Homo sapiens, UniProt Q9BYP7) | 102

Block 3
Compound: CCN(c1nc(N)c(C(=O)N=C(N)N)nc1Cl)C(C)C
Observed: β-arrestin recruitment
Action: agonist
Technique: PRESTO-Tango
Tested at: 10 µM
Relative to: untreated
target | fold over basal
Adenosine receptor A2a (ADORA2A, Homo sapiens, UniProt P29274) | 1.19
Melatonin-related receptor (GPR50, Homo sapiens, UniProt Q13585) | 0.74
Adenosine receptor A2b (ADORA2B, Homo sapiens, UniProt P29275) | 1.02
Lysophosphatidic acid receptor 6 (Homo sapiens, UniProt P43657) | 1.44
Growth hormone secretagogue receptor type 1 (GHSR, Homo sapiens, UniProt Q92847) | 1.62 fold
C-C chemokine receptor type 4 (CCR4, Homo sapiens, UniProt P51679) | 0.99

Block 4
Compound: C[C@H](c1cccc(C#N)c1)n1cc(Cl)cc(C(N)=O)c1=N
Observed: cell-free assay
Technique: competition with immobilised ligand
Tested at: 1 µM
target | remaining binding [%]
Mitogen-activated protein kinase 8 (MAPK8, Homo sapiens, UniProt P45983) | 72
Proto-oncogene tyrosine-protein kinase receptor Ret (RET, Homo sapiens, UniProt P07949, M918T) | 91
Serine/threonine-protein kinase WNK2 (WNK2, Homo sapiens, UniProt Q9Y3S1) | 58
Aurora kinase A (AURKA, Homo sapiens, UniProt O14965) | 97
Ephrin type-A receptor 6 (EPHA6, Homo sapiens, UniProt Q9UF33) | 86
Mast/stem cell growth factor receptor Kit (KIT, Homo sapiens, UniProt P10721, A829P) | 95
Platelet-derived growth factor receptor beta (PDGFRB, Homo sapiens, UniProt P09619) | 83
Serine/threonine-protein kinase PAK 4 (PAK4, Homo sapiens, UniProt O96013) | 100
ALK tyrosine kinase receptor (ALK, Homo sapiens, UniProt Q9UM73) | 79
Serine/threonine-protein kinase 35 (STK35, Homo sapiens, UniProt Q8TDR2) | 88
Cyclin-dependent kinase 2 (CDK2, Homo sapiens, UniProt P24941) | 100
Mitogen-activated protein kinase 15 (MAPK15, Homo sapiens, UniProt Q8TD08) | 100
Bone morphogenetic protein receptor type-1B (BMPR1B, Homo sapiens, UniProt O00238) | 94
Tyrosine-protein kinase FRK (FRK, Homo sapiens, UniProt P42685) | 98
Tyrosine-protein kinase BTK (BTK, Homo sapiens, UniProt Q06187) | 91
Tyrosine-protein kinase Lck (LCK, Homo sapiens, UniProt P06239) | 100
